Assay results of several laboratories.
Numbers after ± are the reported error.

`N=C(N)NCCC[C@@H]1NC(=O)[C@H](CCCCNC(=O)CNC(=O)CNC(=O)CNC(=O)CC[C@H](NC(=O)CNC(=O)CNC(=O)CNC(=O)[C@H](CCCCNC(=O)c2ccc(NN)nc2)NC(=O)c2ccc(NN)nc2)C(=O)NCC(=O)NCC(=O)NCC(=O)NCCCC[C@@H]2NC(=O)[C@@H](Cc3ccccc3)NC(=O)[C@H](CC(=O)O)NC(=O)CNC(=O)[C@H](CCCNC(=N)N)NC2=O)NC(=O)[C@@H](Cc2ccccc2)NC(=O)[C@H](CC(=O)O)NC(=O)CNC1=O` [technetium-99m labelled] gave a tissue uptake of 8.49 ± 1.28 %ID/g (female athymic nude mice, kidneys; intravenous, 0.1 MBq, 1 h, U-87 MG glioma xenograft).
For `N=C(N)NCCC[C@@H]1NC(=O)[C@H](CCCCNC(=O)CNC(=O)CNC(=O)CNC(=O)CC[C@H](NC(=O)CCOCCOCCOCCOCCNC(=O)CC[C@H](NC(=O)CN2CCN(CC(=O)O)CCN(CC(=O)O)CCN(CC(=O)O)CC2)C(=O)NCCOCCOCCOCCOCCC(=O)N[C@@H](CCC(=O)NCC(=O)NCC(=O)NCC(=O)NCCCC[C@@H]2NC(=O)[C@@H](Cc3ccccc3)NC(=O)[C@H](CC(=O)O)NC(=O)CNC(=O)[C@H](CCCNC(=N)N)NC2=O)C(=O)NCC(=O)NCC(=O)NCC(=O)NCCCC[C@@H]2NC(=O)[C@@H](Cc3ccccc3)NC(=O)[C@H](CC(=O)O)NC(=O)CNC(=O)[C@H](CCCNC(=N)N)NC2=O)C(=O)NCC(=O)NCC(=O)NCC(=O)NCCCC[C@@H]2NC(=O)[C@@H](Cc3ccccc3)NC(=O)[C@H](CC(=O)O)NC(=O)CNC(=O)[C@H](CCCNC(=N)N)NC2=O)NC(=O)[C@@H](Cc2ccccc2)NC(=O)[C@H](CC(=O)O)NC(=O)CNC1=O` [indium-111 labelled], the tissue uptake was 5.79 ± 0.67 %ID/g (athymic nude mice, female, U-87 MG glioma xenograft, U-87 MG tumour; intravenous, 3 µCi, 24 h).
With `N=C(N)NCCC[C@@H]1NC(=O)[C@H](CCCCNC(=O)CCOCCOCCOCCOCCNC(=O)CC[C@H](NC(=O)[C@H](CCCCNC(=O)c2ccc(NN)nc2)NC(=O)c2ccc(NN)nc2)C(=O)NCCOCCOCCOCCOCCC(=O)NCCCC[C@@H]2NC(=O)[C@@H](Cc3ccccc3)NC(=O)[C@H](CC(=O)O)NC(=O)CNC(=O)[C@H](CCCNC(=N)N)NC2=O)NC(=O)[C@@H](Cc2ccccc2)NC(=O)[C@H](CC(=O)O)NC(=O)CNC1=O` [technetium-99m labelled] the tissue uptake was 9.94 ± 1.65 %ID/g (female athymic nude mice, kidneys; intravenous, 0.1 MBq, 1 h, U-87 MG glioma xenograft).
`CSCC[C@H](NC(=O)[C@H](CC(C)C)NC(=O)[C@H](Cc1c[nH]cn1)NC(=O)CNC(=O)[C@@H](NC(=O)[C@H](C)NC(=O)[C@H](Cc1c[nH]c2ccccc12)NC(=O)[C@H](CCC(N)=O)NC(=O)CCCCCCCNC(=O)CCC(=O)Nc1ccc(CNC23CNCCNCC(N)(CNCCNC2)CNCCNC3)cc1)C(C)C)C(N)=O` [copper-64 labelled] gave a tissue uptake of 8.26 ± 0.452 %ID/g (female SCID mice, PC-3 xenograft, liver; intravenous, 0.6 MBq, 4 h).
`N=C(N)NCCC[C@@H]1NC(=O)[C@H](CCCCNC(=O)CCOCCOCCOCCOCCNC(=O)CC[C@H](NC(=O)CCOCCOCCOCCOCCNC(=O)[C@H](CCCCNC(=O)c2ccc(NN)nc2)NC(=O)c2ccc(NN)nc2)C(=O)NCCOCCOCCOCCOCCC(=O)NCCCC[C@@H]2NC(=O)[C@@H](Cc3ccccc3)NC(=O)[C@H](CC(=O)O)NC(=O)CNC(=O)[C@H](CCCNC(=N)N)NC2=O)NC(=O)[C@@H](Cc2ccccc2)NC(=O)[C@H](CC(=O)O)NC(=O)CNC1=O` [technetium-99m labelled] has a tissue uptake of 0.14 ± 0.02 %ID/g (female athymic nude mice, brain; intravenous, 0.1 MBq, 1 h, U-87 MG glioma xenograft).
The tissue uptake of `CSCC[C@H](NC(=O)[C@H](CC(C)C)NC(=O)[C@H](Cc1c[nH]cn1)NC(=O)CNC(=O)[C@@H](NC(=O)[C@H](C)NC(=O)[C@H](Cc1c[nH]c2ccccc12)NC(=O)[C@H](CCC(N)=O)NC(=O)CNC(=O)[C@H](CO)NC(=O)CNC(=O)CCCCCCCNC(=O)CCC(=O)Nc1ccc(CNC23CNCCNCC(N)(CNCCNC2)CNCCNC3)cc1)C(C)C)C(N)=O` [copper-64 labelled] is reported as 7.08 ± 0.268 %ID/g (female SCID mice, PC-3 xenograft, kidney; intravenous, 0.6 MBq, 1 h).
`N=C(N)NCCC[C@@H]1NC(=O)[C@H](CCCCNC(=O)CC[C@H](NC(=O)CCOCCOCCOCCOCCNC(=O)CC[C@H](NC(=O)CN2CCN(CC(=O)O)CCN(CC(=O)O)CCN(CC(=O)O)CC2)C(=O)NCCOCCOCCOCCOCCC(=O)N[C@@H](CCC(=O)NCCCC[C@@H]2NC(=O)[C@@H](Cc3ccccc3)NC(=O)[C@H](CC(=O)O)NC(=O)CNC(=O)[C@H](CCCNC(=N)N)NC2=O)C(=O)NCCCC[C@@H]2NC(=O)[C@@H](Cc3ccccc3)NC(=O)[C@H](CC(=O)O)NC(=O)CNC(=O)[C@H](CCCNC(=N)N)NC2=O)C(=O)NCCCC[C@@H]2NC(=O)[C@@H](Cc3ccccc3)NC(=O)[C@H](CC(=O)O)NC(=O)CNC(=O)[C@H](CCCNC(=N)N)NC2=O)NC(=O)[C@@H](Cc2ccccc2)NC(=O)[C@H](CC(=O)O)NC(=O)CNC1=O` [indium-111 labelled] gave a tissue uptake of 8.98 ± 3.47 %ID/g (female athymic nude mice, intestine; intravenous, 3 µCi, 1 h, U-87 MG glioma xenograft).
The tissue uptake of `N=C(N)NCCC[C@@H]1NC(=O)[C@H](CCCCNC(=O)CC[C@H](NC(=O)[C@H](CCCCNC(=O)c2ccc(NN)nc2)NC(=O)c2ccc(NN)nc2)C(=O)NCCCC[C@@H]2NC(=O)[C@@H](Cc3ccccc3)NC(=O)[C@H](CC(=O)O)NC(=O)CNC(=O)[C@H](CCCNC(=N)N)NC2=O)NC(=O)[C@@H](Cc2ccccc2)NC(=O)[C@H](CC(=O)O)NC(=O)CNC1=O` [technetium-99m labelled] is reported as 0.98 ± 0.09 %ID/g (female athymic nude mice, eyes; intravenous, 0.1 MBq, 1 h, U-87 MG glioma xenograft).
For `N=C(N)NCCC[C@@H]1NC(=O)[C@H](CCCCNC(=O)CC[C@H](NC(=O)CCOCCOCCOCCOCCNC(=O)CN2CCN(CC(=O)O)CCN(CC(=O)O)CCN(CC(=O)O)CC2)C(=O)NCCCC[C@@H]2NC(=O)[C@@H](Cc3ccccc3)NC(=O)[C@H](CC(=O)O)NC(=O)CNC(=O)[C@H](CCCNC(=N)N)NC2=O)NC(=O)[C@@H](Cc2ccccc2)NC(=O)[C@H](CC(=O)O)NC(=O)CNC1=O` [indium-111 labelled], the tissue uptake was 0.22 ± 0.05 %ID/g (female athymic nude mice, blood; intravenous, 3 µCi, 4 h, U-87 MG glioma xenograft).
With `CC(C)C[C@H](NC(=O)[C@H](Cc1ccc(O)cc1)NC(=O)[C@@H](CCCNC(=N)N)NC(=O)[C@@H](CO)NC(=O)[C@H](Cc1ccccc1)NC(=O)[C@H](CC1CCCCC1)NC(=O)[C@H](CC(=O)O)NC(=O)CCC(C(=O)O)N1CCCN2CCN(CCCN(CC(=O)O)CC2)CC1)C(=O)N[C@@H](Cc1c[nH]c2ccccc12)C(=O)N[C@@H](CO)C(=O)O` (stereo partly drawn) [copper-64 labelled] the tissue uptake was 3.7 ± 0.8 %ID/g (female NMRI nude mice, intestine; 1 h p.i.).
`N=C(N)NCCC[C@@H]1NC(=O)[C@H](CCCCNC(=O)CCOCCOCCOCCOCCNC(=O)CC[C@H](NC(=O)CCOCCOCCOCCOCCNC(=O)CC[C@H](NC(=O)CN2CCN(CC(=O)O)CCN(CC(=O)O)CCN(CC(=O)O)CC2)C(=O)NCCOCCOCCOCCOCCC(=O)N[C@@H](CCC(=O)NCCOCCOCCOCCOCCC(=O)NCCCC[C@@H]2NC(=O)[C@@H](Cc3ccccc3)NC(=O)[C@H](CC(=O)O)NC(=O)CNC(=O)[C@H](CCCNC(=N)N)NC2=O)C(=O)NCCOCCOCCOCCOCCC(=O)NCCCC[C@@H]2NC(=O)[C@@H](Cc3ccccc3)NC(=O)[C@H](CC(=O)O)NC(=O)CNC(=O)[C@H](CCCNC(=N)N)NC2=O)C(=O)NCCOCCOCCOCCOCCC(=O)NCCCC[C@@H]2NC(=O)[C@@H](Cc3ccccc3)NC(=O)[C@H](CC(=O)O)NC(=O)CNC(=O)[C@H](CCCNC(=N)N)NC2=O)NC(=O)[C@@H](Cc2ccccc2)NC(=O)[C@H](CC(=O)O)NC(=O)CNC1=O` [indium-111 labelled] has a tissue uptake of 1.27 ± 0.23 %ID/g (female athymic nude mice, bone; intravenous, 3 µCi, 0.5 h, U-87 MG glioma xenograft).
With `CSCC[C@H](NC(=O)[C@H](CC(C)C)NC(=O)[C@H](Cc1c[nH]cn1)NC(=O)CNC(=O)[C@@H](NC(=O)[C@H](C)NC(=O)[C@H](Cc1c[nH]c2ccccc12)NC(=O)[C@H](CCC(N)=O)NC(=O)CCCCNC(=O)CSCCSCCP(CO)CO)C(C)C)C(N)=O` [technetium-99m labelled] the tissue uptake was 0 %ID (CF-1 mice, female, brain; intravenous, 24 h).
